Results collected from several papers.
Parts stem from different laboratories: compare values within a part only. “And” joins repeats or separate records; there may be more than shown.
Sequence of UniProt P21397 (whole entry, looked up): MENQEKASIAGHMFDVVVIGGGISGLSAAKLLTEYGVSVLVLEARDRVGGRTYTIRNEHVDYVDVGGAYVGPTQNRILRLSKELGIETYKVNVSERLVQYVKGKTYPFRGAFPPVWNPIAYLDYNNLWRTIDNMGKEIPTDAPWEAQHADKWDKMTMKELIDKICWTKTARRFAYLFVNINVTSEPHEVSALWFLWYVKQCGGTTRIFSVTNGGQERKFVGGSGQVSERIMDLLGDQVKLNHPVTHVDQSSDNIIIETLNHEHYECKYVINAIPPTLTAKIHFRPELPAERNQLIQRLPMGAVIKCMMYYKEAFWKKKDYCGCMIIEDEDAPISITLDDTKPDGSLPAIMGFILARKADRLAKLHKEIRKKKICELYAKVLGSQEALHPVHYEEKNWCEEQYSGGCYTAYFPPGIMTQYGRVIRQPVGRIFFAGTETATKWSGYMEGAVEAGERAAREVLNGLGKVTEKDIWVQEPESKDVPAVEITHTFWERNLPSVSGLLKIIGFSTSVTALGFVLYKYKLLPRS
Sequence of UniProt P27338 (whole entry, looked up): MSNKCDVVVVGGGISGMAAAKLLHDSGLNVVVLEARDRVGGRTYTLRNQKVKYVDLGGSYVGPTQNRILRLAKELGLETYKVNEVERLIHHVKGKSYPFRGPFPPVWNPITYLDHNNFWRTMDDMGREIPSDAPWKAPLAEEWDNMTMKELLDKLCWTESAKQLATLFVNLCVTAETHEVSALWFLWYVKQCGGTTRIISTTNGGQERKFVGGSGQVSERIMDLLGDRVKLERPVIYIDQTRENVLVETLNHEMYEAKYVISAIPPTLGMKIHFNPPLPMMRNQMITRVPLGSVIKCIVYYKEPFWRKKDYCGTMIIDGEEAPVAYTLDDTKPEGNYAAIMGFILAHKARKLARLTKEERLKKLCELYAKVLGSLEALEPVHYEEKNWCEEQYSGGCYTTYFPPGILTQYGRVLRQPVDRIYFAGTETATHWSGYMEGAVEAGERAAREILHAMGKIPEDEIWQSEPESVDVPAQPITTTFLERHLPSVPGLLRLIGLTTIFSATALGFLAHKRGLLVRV

Series 1
Cell line: HCC1569
Read-out: CDK1 Thr14 phosphorylation
Method: in-cell western
Tested at: 1.37 nM
Direction: lower = stronger inhibition
Endpoint: phospho-CDK1 (Thr14) level
Cc1ccc(O)c(C)c1-c1cnc2[nH]c(-c3cnc(N4CCC(CN5CCN(c6ccc(NC7CCC(=O)NC7=O)cc6F)CC5)CC4)nc3)cc2c1C#N (centres unmarked): 25.9 a.u. and 37.8 a.u.
Cc1ccc(O)c(C)c1-c1cnc2[nH]c(-c3cnc(N4CCC5(CC4)CC(N4CCN(c6ccc(NC7CCC(=O)NC7=O)cc6F)CC4)CO5)nc3)cc2c1C#N (centres unmarked): 26.5 a.u. and 12.6 a.u.
Cc1ccc(O)c(C)c1-c1cnc2[nH]c(-c3cnc(N4CCC(CN5CCN(c6cc7c(cc6F)c(N6CCC(=O)NC6=O)nn7C)CC5)CC4)nc3)cc2c1C#N: 3 a.u. and 7.56 a.u.
Cc1ccc(O)c(C)c1-c1cnc2[nH]c(-c3cnc(N4CCC(CN5CCN(c6cc7c(cc6F)n(C6CCC(=O)NC6=O)c(=O)n7C)CC5)CC4)nc3)cc2c1C#N (centres unmarked): -3.2 a.u. and 19 a.u.
Cc1ccc(O)c(C)c1-c1cnc2[nH]c(-c3cnc(N4CCC(CN5CCC(c6ccc(NC7CCC(=O)NC7=O)cc6F)CC5)CC4)nc3)cc2c1C#N (centres unmarked): 23 a.u. and 9.72 a.u.

Series 2
Organism: Arabidopsis thaliana
Strain: Col-0
Tested at: 12.5 µg/mL
Setting: seed germination
Endpoint: root length
Cc1ccc2c(c1)OC(O)(C(=O)O)C(=O)N2Cc1ccccc1 (centres unmarked): 1.08 cm
O=C(O)C1(O)Oc2cc(F)ccc2N(Cc2ccccc2)C1=O (centres unmarked): 0.316 cm
CN1C(=O)C(O)(C(=O)O)Oc2cc(F)ccc21 (centres unmarked): 0.919 cm
CCN1C(=O)C(O)(C(=O)O)Oc2cc(F)ccc21 (centres unmarked): 0.836 cm
O=C(O)C1(O)Oc2ccccc2N(Cc2ccccc2)C1=O (centres unmarked): 1.25 cm
CCCN1C(=O)C(O)(C(=O)O)Oc2cc(F)ccc21 (centres unmarked): 0.823 cm
CC(C)(C)c1ccc(Oc2ccc3c(c2)OC(O)(C(=O)O)C(=O)N3Cc2ccccc2)cc1 (centres unmarked): 0.731 cm
COc1ccc2c(c1)OC(O)(C(=O)O)C(=O)N2Cc1ccccc1 (centres unmarked): 1.17 cm
O=C(O)C1(O)Oc2cc(Br)ccc2N(Cc2ccccc2)C1=O (centres unmarked): 0.939 cm
O=C(O)C1Oc2cc(F)ccc2N(Cc2ccccc2)C1=O (centres unmarked): 1.04 cm
CC(C)=CCN1C(=O)C(O)(C(=O)O)Oc2cc(F)ccc21 (centres unmarked): 1.14 cm
O=C(O)C1(O)Oc2cc(Cl)ccc2N(Cc2ccccc2)C1=O (centres unmarked): 1.21 cm

Series 3
Structure (SMILES): CS(=O)(=O)c1ccc(OC/C(=C/F)CN)cc1.Cl
Endpoint: inhibition
MPO: Myeloperoxidase (MPO, Homo sapiens, UniProt P05164)
Sequence of UniProt P05164 (whole entry, looked up): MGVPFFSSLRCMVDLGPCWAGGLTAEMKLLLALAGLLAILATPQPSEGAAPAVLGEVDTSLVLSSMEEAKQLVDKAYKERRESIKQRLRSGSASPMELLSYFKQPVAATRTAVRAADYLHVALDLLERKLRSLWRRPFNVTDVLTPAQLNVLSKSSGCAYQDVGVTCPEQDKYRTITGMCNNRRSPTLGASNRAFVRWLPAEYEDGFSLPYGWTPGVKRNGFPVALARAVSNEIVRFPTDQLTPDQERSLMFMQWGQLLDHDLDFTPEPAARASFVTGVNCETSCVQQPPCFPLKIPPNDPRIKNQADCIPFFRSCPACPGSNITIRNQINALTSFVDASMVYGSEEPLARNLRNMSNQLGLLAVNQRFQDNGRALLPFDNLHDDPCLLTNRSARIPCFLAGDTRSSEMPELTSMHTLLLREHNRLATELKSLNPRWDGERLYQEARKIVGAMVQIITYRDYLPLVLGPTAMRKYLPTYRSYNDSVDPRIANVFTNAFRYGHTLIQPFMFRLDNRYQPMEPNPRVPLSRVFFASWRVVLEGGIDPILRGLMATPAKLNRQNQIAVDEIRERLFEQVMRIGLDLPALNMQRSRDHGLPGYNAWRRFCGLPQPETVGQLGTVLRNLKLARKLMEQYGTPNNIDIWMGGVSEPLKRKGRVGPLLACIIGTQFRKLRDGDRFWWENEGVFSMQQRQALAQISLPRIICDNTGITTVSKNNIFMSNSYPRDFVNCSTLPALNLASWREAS
Amine oxidase [copper-containing] 3: Amine oxidase [copper-containing] 3 (Rattus norvegicus, UniProt O08590)
Sequence of UniProt O08590 (whole entry, looked up): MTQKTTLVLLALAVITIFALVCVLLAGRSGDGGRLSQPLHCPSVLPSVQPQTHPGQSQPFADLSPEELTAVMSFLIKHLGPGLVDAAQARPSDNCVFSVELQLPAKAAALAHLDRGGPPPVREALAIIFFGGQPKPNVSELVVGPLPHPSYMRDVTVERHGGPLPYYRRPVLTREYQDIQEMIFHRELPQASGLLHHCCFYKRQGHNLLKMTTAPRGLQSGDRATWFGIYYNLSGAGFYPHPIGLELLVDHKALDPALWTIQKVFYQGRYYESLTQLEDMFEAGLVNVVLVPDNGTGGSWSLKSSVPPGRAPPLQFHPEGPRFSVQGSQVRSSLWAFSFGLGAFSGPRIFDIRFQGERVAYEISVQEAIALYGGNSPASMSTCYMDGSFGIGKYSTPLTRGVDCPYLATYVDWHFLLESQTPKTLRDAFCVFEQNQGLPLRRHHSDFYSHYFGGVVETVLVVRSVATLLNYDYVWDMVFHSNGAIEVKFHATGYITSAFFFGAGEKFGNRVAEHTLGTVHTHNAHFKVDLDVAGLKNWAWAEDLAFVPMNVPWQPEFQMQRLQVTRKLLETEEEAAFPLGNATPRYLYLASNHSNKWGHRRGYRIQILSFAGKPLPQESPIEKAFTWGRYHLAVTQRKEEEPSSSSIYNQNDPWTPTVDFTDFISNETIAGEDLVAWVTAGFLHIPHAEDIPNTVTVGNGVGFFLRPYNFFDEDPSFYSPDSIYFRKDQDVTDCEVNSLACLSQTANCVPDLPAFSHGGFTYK
Amine oxidase [flavin-containing] B (MAOB, Homo sapiens, UniProt P27338); enzyme activity, inhibitor; 0.3704 µM: 0.362% and 0.97%
MPO; enzyme activity, inhibitor, fluorescence; 4.6 nM: -10.1% and -1.07% and -1.18%
MPO; enzyme activity, inhibitor, fluorescence; 0.1235 µM: -4.05% and 3.82% and 1.34%
Amine oxidase [flavin-containing] A (MAOA, Homo sapiens, UniProt P21397); enzyme activity, inhibitor; 4.6 nM: -2.57% and -2.11% and -2.3% and 2.05% and 4.44%
Amine oxidase [copper-containing] 3; rat adipose tissue; 0.3333 µM: 98.2%
Amine oxidase [copper-containing] 3; rat adipose tissue; 0.0005 µM: 9.97%
Amine oxidase [copper-containing] 3; rat adipose tissue; 3 µM: 100%
Amine oxidase [copper-containing] 3; rat adipose tissue; 5.081e-05 µM: -12.9%

Series 4
Structure (SMILES): Cc1ncsc1-c1ccc(C(CO)NC(=O)C2CC(O)CN2C(=O)C(C(C)C)n2cc(-c3ccc(COc4c(-c5c(C)c(F)cc6[nH]ncc56)c(C5CC5)cc5c(N6CC7CC6CN7)nc(OC6CCOCC6)nc45)cc3)nn2)cc1 (centres unmarked)
Endpoint: tumour volume
KP-4 xenograft, mouse; 30 mg/kg once weekly, day 0: 215 mm3 and 256 mm3 and 197 mm3 and 192 mm3 and 180 mm3
mouse, A-375 xenograft; sc, 30 mg/kg once daily, day 8: 395 mm3 and 258 mm3 and 490 mm3 and 354 mm3 and 438 mm3
mouse, PK-59 xenograft; 30 mg/kg, day 0: 241 mm3 and 309 mm3 and 268 mm3 and 334 mm3 and 310 mm3
mouse, lung LXFA sample B PDX; 10 mg/kg twice weekly, day 4: 375 mm3 and 102 mm3 and 47.1 mm3 and 124 mm3 and 132 mm3 and 263 mm3 and 197 mm3 and 70.3 mm3
mouse, lung LXFA sample A PDX; 30 mg/kg twice weekly, day 22: 51.8 mm3 and 49.7 mm3 and 63.6 mm3 and 13.8 mm3 and 63 mm3 and 74 mm3 and 118 mm3 and 125 mm3
mouse, ASPC1 xenograft; 30 mg/kg twice weekly, day 0: 284 mm3 and 178 mm3 and 189 mm3 and 169 mm3 and 212 mm3
mouse, PK-59 xenograft; 0.3 mg/kg, day 4: 485 mm3 and 607 mm3 and 521 mm3 and 484 mm3 and 494 mm3

Excerpt of the above (series 2):
Cc1ccc2c(c1)OC(O)(C(=O)O)C(=O)N2Cc1ccccc1 (centres unmarked): 1.08 cm
O=C(O)C1(O)Oc2cc(Cl)ccc2N(Cc2ccccc2)C1=O (centres unmarked): 1.21 cm
CC(C)=CCN1C(=O)C(O)(C(=O)O)Oc2cc(F)ccc21 (centres unmarked): 1.14 cm
